Published values pooled from the literature.
Compare with care: the assays were run in different laboratories. Several values in a cell are separate wells, animals, samples, runs or records. Numbers after ± are the reported error.

The viability of CC(C)[C@H](N)C(=O)N1CCC[C@H]1B(O)O is reported as 100% and 98% (EA.hy926 CASP1 knockout; CellTiter-Glo; concentration not given).
Under viability, O=C1CCP(=S)(c2ccccc2)CC1 is recorded as “no effect” (SW480 and SW-620; trypan blue; concentration not given, 72 h, compound at IC50; relative to: control).
For COc1c(C)c2c(c(O)c1C/C=C(\C)CCC(=O)O)C(=O)OC2, the IC50 was 1.48 µM (Cervix cancer cell lines; cell proliferation).
CC(c1ccccc1)(c1ccc(O)cc1)c1ccc(O)cc1: “G2 phase cells” 17.8 ± 6.77% (HepG2 spheroids; Hoechst flow cytometry; 1 µM, 96 h).
For COc1cc(CCC[P+](c2ccccc2)(c2ccccc2)c2ccccc2)c(OC)c2c1OCO2.[I-], the TGI was -4.88 log M (HCC 2998; SRB).
CC(C)=CCC[C@](C)(O)[C@H]1CC[C@]2(C)[C@@H]1[C@H](O)C[C@@H]1[C@@]3(C)CC[C@H](O)C(C)(C)[C@@H]3[C@@H](O[C@@H]3O[C@H](CO)[C@@H](O)[C@H](O)[C@H]3O)C[C@]12C gave an optical density of 1.08 a.u. and 1.07 a.u. and 1.04 a.u. and 1.01 a.u. and 0.785 a.u. and 0.992 a.u. (HepG2; cell viability, CCK-8; 25 µM; higher = more viable cells).
CN(C)NC(=O)CCC(=O)O has a viability of 104% (HBL-1; 1 µM, 120 h).
For Cn1nccc1Nc1nccc(-c2cc3c(s2)C(C)(C)N(CCN2CCOCC2)C3=O)n1, the PI-positive cells was 24.5 count and 14.5 count and 21.4 count (HCT116; IncuCyte; concentration not given, 40 (unit not given)).
Under “G2 phase cells”, O=S(=O)(c1ccc(O)cc1)c1ccc(O)cc1 is recorded as 19.9 ± 3.82% (HepG2 spheroids; Hoechst flow cytometry; 40 µM, 24 h).
With CC(C)C[C@H](NC(=O)[C@H](C)NC(=O)[C@H](Cc1c[nH]cn1)NC(=O)[C@H](C)NC(=O)[C@H](CC(C)C)NC(=O)[C@H](Cc1c[nH]cn1)NC(=O)[C@H](CC(C)C)NC(=O)[C@H](Cc1c[nH]c2ccccc12)NC(=O)[C@H](CC(C)C)NC(=O)[C@H](CC(C)C)NC(=O)[C@H](C)NC(=O)[C@H](CC(C)C)NC(=O)[C@H](CC(C)C)NC(=O)[C@H](Cc1c[nH]cn1)NC(=O)[C@H](CC(C)C)NC(=O)[C@H](C)NC(=O)[C@H](Cc1c[nH]cn1)NC(=O)[C@H](C)NC(=O)[C@H](CC(C)C)NC(=O)[C@H](CCCCN)NC(=O)[C@@H](N)CCCCN)C(=O)N[C@@H](CCCCN)C(=O)N[C@@H](CCCCN)C(=O)N[C@@H](C)C(=O)N[C@@H](CS)C(N)=O the EC50 was 20 µM (human red blood cells; pH 5.5; relative to: Triton X-100).
The inhibition of O=c1[nH]c2ccccc2n1C1CCN(Cc2ccc(-c3nc4cc5[nH]cnc5cc4nc3-c3ccccc3)cc2)CC1 is reported as 99% (HeLa expressing Ub(G76V)-GFP; Ub(G76V)-GFP degradation, inhibitor, cycloheximide chase; 12 µM).
For CC[C@@]1(O)C(=O)OCc2c1cc1n(c2=O)Cc2cc3ccccc3nc2-1, the inhibition was 94.3% (BT-16; cell viability, MTT; 10 µM, 72 h).
For CC(C)N1CCC(NC2CCN(c3cccc(-c4cc5cc(F)ccc5[nH]4)c3)CC2)CC1, the CC50 was 6.11 µM (U-251).
Under “relative colony forming efficiency”, Cc1ccc2cc3c(ccc4ccccc43)c3c2c1CC3 is recorded as 5 ± 3% (BALB/c 3T3; 15 µM, positive control; relative to: solvent control).
For Nc1ncnc2c1ncn2[C@@H]1O[C@@H]2COP(=O)(O)O[C@H]3[C@@H](O)[C@H](n4cnc5c(=O)[nH]cnc54)O[C@@H]3COP(=O)(O)O[C@H]2[C@H]1O, “pathway fold enrichment” read 11.2 (HFF-1; RNA sequencing Reactome analysis, item: Reactome R-HSA-9683610 maturation of nucleoprotein; added: West Nile virus infection; relative to: West Nile virus infected cells, upregulated pathway).
Under “normalized enrichment score”, C/C=C(/C)C(=O)O[C@H]1C(C)=C2[C@H]([C@@H]1OC(=O)CCCCCCC)[C@@](C)(OC(C)=O)C[C@H](OC(=O)CCC)[C@@]1(O)[C@H]2OC(=O)[C@@]1(C)O is recorded as 0.925 (HEK-293T; RNA-seq GSEA, item: Hallmark EMT; 500 nM, 6 h; direction not given).
With Nc1ncc(-c2nc(N3CCOCC3)nc(N3CCOCC3)n2)c(C(F)F)n1 the GI50 was 0.249 µM (panel of 66 cancer cell lines; cell growth; 72 h, panel mean).
For CC(C)=CCCC1(C)C=Cc2c(O)c3c(c(CC=C(C)C)c2O1)OC12C(=CC4CC1C(C)(C)OC2(C/C=C(/C)C(=O)O)C4O)C3=O (centres unmarked), the activity score was 5.3 (human iPSC-derived cardiomyocytes; MyBP-C/MYH ratio, plate-normalised SD score; concentration not given, primary screen; direction not given).
CCN(CC)c1ccc(C=NNC(=O)CSc2nc3ccccc3c(=O)n2Cc2ccc(S(N)(=O)=O)cc2)c(O)c1 gave a CC50 of > 100 µM (RXF 393; NCI five-dose screen).
c1ccc([C@@H]2C[C@H]2NC2CCNCC2)cc1 has a viability of 135% (HBL-1; 0.5 µM, 120 h).
O=c1cc(-c2ccc(O)cc2)oc2cc(O)cc(O)c12: “total neurite length” 31.8 to 34 µm (induced SH-SY5Y Aβ-GFP cells; 5 µM).
With COc1c(CCC[P+](c2ccccc2)(c2ccccc2)c2ccccc2)cc2c(c1OC)OCO2.[I-] the LC50 was > -4 log M (UO-31; SRB).
CC[C@H](C)[C@H](NC(=O)[C@H](CO)NC(=O)[C@H](CC(C)C)NC(=O)[C@H](Cc1ccccc1)NC(=O)CN)C(=O)N[C@@H](CC(C)C)C(=O)N[C@@H](CCCCN)C(=O)N[C@@H](CCCCN)C(=O)N[C@H](C(=O)N[C@@H](CC(C)C)C(=O)N[C@@H](CCCCN)C(=O)N[C@H](C(=O)N[C@@H](CCSC)C(=O)N[C@@H](C)C(=O)N[C@@H](Cc1c[nH]cn1)C(=O)N[C@@H](CCSC)C(=O)N[C@@H](CCCCN)C(=O)N[C@@H](CS)C(N)=O)C(C)C)C(C)C gave an EC50 of 16 µM (human red blood cells; pH 7.4; relative to: Triton X-100).
The activity score of O=P1(NCCCl)OCCCN1CCCl (centres unmarked) is reported as 3.2 (human iPSC-derived cardiomyocytes; MyBP-C/MYH ratio, plate-normalised SD score; concentration not given, primary screen; direction not given).
CN1CCN(S(=O)(=O)c2cc([N+](=O)[O-])ccc2N(CCOS(C)(=O)=O)CCOS(C)(=O)=O)CC1: “IC50 fold change” 93.8 (sample BA T-ALL PDX cells; cell viability; ex vivo; 48 h, added: AKR1C3 inhibitor; relative to: with inhibitor over alone).
Cn1cncc1C1=CN(c2ncnc3[nH]cnc23)CCS1 gave a CC50 of 138 µM (LOX IMVI; melanoma cell line).
For CN1CCN(C2(CNC3CCN(c4cccc(-c5cc6cc(F)ccc6[nH]5)c4)CC3)CCC2)CC1, the GI50 was 1.72 µM (NCI-H522).
Cc1cc(NS(=O)(=O)c2ccc(NC(=O)/C(C#N)=C/c3ccc(N4CCCCC4)cc3)cc2)no1 — result for “mRNA level decrease”: 3.7 fold (HCT-116; qRT-PCR, item: survivin; concentration not given; relative to: untreated).
For Oc1cc(Cl)ccc1Oc1ccc(Cl)cc1Cl, the activity score was 17 (human iPSC-derived cardiomyocytes; MyBP-C/MYH ratio, plate-normalised SD score; concentration not given, primary screen; direction not given).
CC(C)C[C@H](NC(=O)[C@H](CCc1ccccc1)NC(=O)CN1CCOCC1)C(=O)N[C@@H](Cc1ccccc1)C(=O)N[C@@H](CC(C)C)C(=O)[C@@]1(C)CO1 has a fold change of -6010 (patient tumour conditionally reprogrammed cells; RNA-seq, item: TUBB4A mRNA; human; concentration not given; relative to: DMSO).
Cn1cc(C2=C(c3cn(C4CCN(Cc5ccccn5)CC4)c4ccccc34)C(=O)NC2=O)c2ccccc21 gave a beat amplitude of 92.7% (iCell Cardiomyocytes (hiPSC-derived); xCELLigence Cardio impedance; concentration not given, 2 h; relative to: control).
Under “G2 phase cells”, Oc1ccc(C2(c3ccc(O)cc3)c3ccccc3-c3ccccc32)cc1 is recorded as 20.9 ± 3.17% (HepG2 spheroids; Hoechst flow cytometry; 1 µM, 24 h).
The EC50 of CS(=O)(=O)c1ccc(-c2nnc(/C=C/c3nnc(-c4ccc(C#N)cc4)o3)n2-c2ccccc2Cl)nc1 is reported as 0.0658 µM (Apc Q1405X mutant organoids; organoid area, live-cell imaging; mouse small intestinal organoids; 6 days, Tnks1 genotype Tnks1-/-).
COc1ccc(-c2ccc3ncc4c(c3c2)n([C@@H]2CCN(C)CC2(F)F)c(=O)n4C)cn1: “clonogenic survival after radiation” “no effect” (U-251; 3 nM, added: radiation).
With O=C1N(Cc2ccccc2Cl)c2ccccc2C12NN=C(c1ccccc1)S2 (centres unmarked) the fold change was 1.59 (MDA-MB-468; gene expression array, item: TFPT mRNA; 10 µM, 12 h; relative to: untreated, up).
With COc1ccc2c(c1)[nH]c1c(C)nccc12 the methylation reduction was 0% (DU-145; bisulfite pyrosequencing, item: RASSF1A promoter CpG site 14; concentration not given; relative to: vehicle).
CC[C@H](C)[C@H](NC(=O)CN)C(=O)NCC(=O)N[C@@H](C)C(=O)N[C@H](C(=O)N[C@@H](CC(C)C)C(=O)N[C@@H](CCCCN)C(=O)N[C@H](C(=O)N[C@@H](CC(C)C)C(=O)N[C@@H](C)C(=O)N[C@H](C(=O)NCC(=O)N[C@@H](CC(C)C)C(=O)N1CCC[C@H]1C(=O)N[C@H](C(=O)N[C@@H](CC(C)C)C(=O)N[C@H](C(=O)N[C@@H](CO)C(=O)N[C@@H](Cc1c[nH]c2ccccc12)C(=O)N[C@H](C(=O)N[C@@H](CS)C(N)=O)[C@@H](C)CC)[C@@H](C)CC)[C@@H](C)O)[C@@H](C)O)C(C)C)[C@@H](C)CC has an EC50 of 16 µM (human red blood cells; pH 5.5; relative to: Triton X-100).
With CC(=O)Nc1cc([As](=O)(O)O)ccc1O the activity score was 3.1 (human iPSC-derived cardiomyocytes; MyBP-C/MYH ratio, plate-normalised SD score; concentration not given, primary screen; direction not given).

A few entries again:
The activity score of O=P1(NCCCl)OCCCN1CCCl (centres unmarked) is reported as 3.2 (human iPSC-derived cardiomyocytes; MyBP-C/MYH ratio, plate-normalised SD score; concentration not given, primary screen; direction not given).
For Oc1cc(Cl)ccc1Oc1ccc(Cl)cc1Cl, the activity score was 17 (human iPSC-derived cardiomyocytes; MyBP-C/MYH ratio, plate-normalised SD score; concentration not given, primary screen; direction not given).
For COc1c(C)c2c(c(O)c1C/C=C(\C)CCC(=O)O)C(=O)OC2, the IC50 was 1.48 µM (Cervix cancer cell lines; cell proliferation).
Cc1cc(NS(=O)(=O)c2ccc(NC(=O)/C(C#N)=C/c3ccc(N4CCCCC4)cc3)cc2)no1 — result for “mRNA level decrease”: 3.7 fold (HCT-116; qRT-PCR, item: survivin; concentration not given; relative to: untreated).
